{"data": "Results collected from several papers", "GBA1 R534H": "Lysosomal acid glucosylceramidase (GBA1, Homo sapiens, UniProt P04062, R534H)", "note": "Compare with care: the assays were run in different laboratories. ± marks the error that the study gave.", "chain of UniProt P04062 (whole entry, unmodified, looked up)": "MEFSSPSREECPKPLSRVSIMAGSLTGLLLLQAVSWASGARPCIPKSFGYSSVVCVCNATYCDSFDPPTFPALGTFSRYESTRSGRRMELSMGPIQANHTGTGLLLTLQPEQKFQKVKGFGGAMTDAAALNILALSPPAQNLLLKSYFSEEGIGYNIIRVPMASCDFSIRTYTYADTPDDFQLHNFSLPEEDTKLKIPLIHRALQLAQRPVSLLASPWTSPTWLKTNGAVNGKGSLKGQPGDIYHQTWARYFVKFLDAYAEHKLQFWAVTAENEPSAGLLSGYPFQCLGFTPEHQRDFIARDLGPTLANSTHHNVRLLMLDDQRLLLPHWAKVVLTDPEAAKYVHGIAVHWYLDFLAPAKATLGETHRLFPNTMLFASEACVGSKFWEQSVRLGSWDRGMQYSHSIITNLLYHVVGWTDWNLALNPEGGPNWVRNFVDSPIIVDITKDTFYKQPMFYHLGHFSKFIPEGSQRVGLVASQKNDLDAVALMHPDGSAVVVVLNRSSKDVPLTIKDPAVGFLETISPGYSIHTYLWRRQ"}
{"SMILES": "COCC1CN(C2CCN(c3cc(OC)c(Nc4ncc(Br)c(Nc5ccc6c(c5P(C)(C)=O)OCCO6)n4)cc3C)CC2)C1", "test system": "EGFR-mutant NSCLC patients, plasma", "setting": "oral, 10 mg multiple doses, geometric mean", "measurement": "Cmax at steady state", "value": "37.8 ng/mL"}
{"SMILES": "CC(C)C[C@H](NC(=O)[C@H](CCCCN)NC(=O)C1CCCC=CCCC(NC(=O)[C@H](CCCCN)NC(=O)[C@@H](N)CC(C)C)C(=O)N[C@@H](CCCCN)C(=O)N[C@@H](CC(C)C)C(=O)N[C@@H](CCCCN)C(=O)N2CCC[C@@H]2C(=O)NCC(=O)N[C@@H](CCCCN)C(=O)N[C@@H](CC(C)C)C(=O)N[C@@H](CCCCN)C(=O)N1)C(N)=O (stereo partly shown)", "assay": "RP-HPLC C18", "setting": "hydrophobicity", "measurement": "retention time", "value": "14.6 min"}
{"SMILES": "C/C(N)=N/C(=N\\S(=O)(=O)c1ccc(C(F)(F)F)cc1)N1C[C@H](c2ccccc2)C(c2ccc(Cl)cc2)=N1", "test system": "C57BL/6 mouse, kidney", "setting": "intravenous, 10 mg/kg", "measurement": "AUC(0-inf)", "value": "67500 ng·h/mL"}
{"SMILES": "O=C(Nc1cnccc1-c1ccc([18F])nc1)c1ccnc(NC(=O)C2CC2)c1", "assay": "PET imaging", "test system": "FVB/NJ mice, both sexes, brain", "setting": "intravenous, 10 min post-injection", "measurement": "SUV", "value": 0.099}
{"SMILES": "O=S1(=O)CC2CCCCC2CS1 (stereo not shown)", "assay": "phase solubility, NMR", "test system": "water", "setting": "25 °C, together with: hydroxypropyl-β-cyclodextrin 280 mM", "measurement": "solubility", "value": "29.5 mM"}
{"SMILES": "CC(C)n1ncc2c(C(=O)NCCN)cc(C3CC3)nc21", "assay": "metabolic stability", "test system": "mouse, liver microsomes", "measurement": "scaled CLint", "value": "< 38 mL/min/kg"}
{"SMILES": "CC(C)N=c1cc2n(-c3ccc(Cl)cc3)c3ccccc3nc-2cc1Nc1ccc(Cl)cc1", "target or system": "Trypanosoma cruzi", "assay": "reporter mRNA translation, inhibitor, measured: capped polyadenylated Renilla luciferase mRNA", "test system": "cell-free extract", "setting": "concentration not given", "how to read": "relative to: control RNA", "measurement": "relative translation", "value": "122%"}
{"SMILES": "C=CC(=O)Nc1cc(Nc2nccc(-c3c[nH]c4ccccc34)n2)c(OC)cc1N(C)CCN(C)C", "assay": "storage stability", "test system": "human plasma", "setting": "2 h, on ice, HQC level", "measurement": "recovery", "value": "96.2%"}
{"SMILES": "C[C@@H](OCCCCCN1C[C@H](O)[C@@H](O)[C@H](O)[C@H]1CO)c1ccc(-c2ccccc2)cc1", "target or system": "GBA1 R534H", "assay": "inhibitor, 4MU-β-D-glucopyranoside", "setting": "together with: 4MU-β-D-glucopyranoside", "measurement": "IC50", "value": "300 µM"}
{"SMILES": "CC[C@H](C)[C@@H]1NC(=O)[C@H](Cc2ccc(O)cc2)NC(=O)CCCSC[C@@H](C(=O)N(CC(=O)N[C@@H](CC(C)C)C(=O)NCC(N)=O)Cc2ccc(F)cc2)NC(=O)[C@H](CC(N)=O)NC(=O)[C@H](CCC(N)=O)NC1=O", "test system": "healthy women, plasma", "setting": "intranasal, 300 µg single dose", "measurement": "AUC(0-inf)", "value": "0.142 ng·h/mL"}
{"SMILES": "O=C(CCCCCN1C[C@H](O)[C@@H](O)[C@H](O)[C@H]1CO)NC12CC3CC(CC(C3)C1)C2", "target or system": "GBA1 R534H", "assay": "inhibitor, 4MU-β-D-glucopyranoside", "setting": "together with: 4MU-β-D-glucopyranoside", "measurement": "IC50", "value": "0.5 µM"}
{"SMILES": "Cc1c(Cc2cc(Cl)cc(OC(C)C(=O)O)c2)c2ccc(C(=O)NC(C)c3ccc(C(C)(C)C)cc3)cc2n1CC1CC1 (stereo not shown)", "test system": "human liver microsomes", "setting": "1 µM, together with: microsomes 1 mg/mL", "measurement": "half-life", "value": "> 1 h"}
{"SMILES": "C[C@@H](Nc1nc2c(cnn2C(C)(C)C)c(=O)n1Cc1cccc(F)c1)c1ccc(Cl)cc1", "test system": "male C57BL/6J mice, brain", "setting": "oral, 10 mg/kg, 1 h", "measurement": "brain concentration", "value": "236 ng/g"}
{"SMILES": "CN(C)CCCCCN(C)Cc1cc2ccccc2o1.Cl", "target or system": "Trypanosoma cruzi", "assay": "reporter mRNA translation, inhibitor, measured: capped polyadenylated Renilla luciferase mRNA", "test system": "cell-free extract", "setting": "concentration not given", "how to read": "relative to: control RNA", "measurement": "relative translation", "value": "112%"}
{"SMILES": "CC(C)=CCC1=C([O-])C(=O)c2ccccc2C1=O.CC(C)=CCC1=C([O-])C(=O)c2ccccc2C1=O.O.[Cu+2].c1ccc(-c2ccccn2)nc1", "assay": "cyclic voltammetry", "test system": "CH2Cl2, Bu4NPF6", "setting": "0.1 mM", "how to read": "relative to: Ag/AgCl sat. KOH", "measurement": "Epa1 anodic peak potential", "value": "1.45 V"}
{"SMILES": "[11CH3]N1CCC(NC(=O)c2cc(-c3c(O)cc(O)cc3Oc3ccc([N+](=O)[O-])cc3)on2)CC1", "test system": "Wistar rat, female, healthy, lungs", "setting": "intravenous, 18.5 MBq, 30 min", "measurement": "SUV", "value": "1.2 ± 0.1"}
{"SMILES": "Cc1cc(-c2ccc(C(=O)[C@@H]3CCCC[C@H]3C(=O)Nc3cnn4c3C(=O)NCC4)cc2)[nH]n1", "test system": "human, faeces", "setting": "oral, 200 mg, 216-240 h, discharged subjects excluded", "how to read": "relative to: dose", "measurement": "recovery of radioactivity per interval", "value": "1.19%"}
{"SMILES": "CCCCN1C(=O)c2cccc3c(NCCCCCCN4CCOCC4)ccc(c23)C1=O", "test system": "ethylene glycol", "measurement": "fluorescence quantum yield", "value": 0.73}
{"SMILES": "CC(C)(O)c1ncc([S@](N)(=O)=NC(=O)Nc2c3c(cc4c2CCC4)CCC3)s1", "assay": "measured: Gastrointestinal disorders", "test system": "healthy human volunteers", "setting": "oral, dose not given, single dose, all active arms", "measurement": "subjects with adverse events", "value": "17%"}
